Experimental data of several laboratories.
A part holds a random share of what one study measured.

Study 1
Target: Interferon regulatory factor 7, full length, phosphomimetic (IRF7, Homo sapiens, UniProt Q92985, residues 1-503, S101K/S471D/S472D/S475D/S476D/S477D/S483D/S484D/S487D)
Technique: protein-binding microarray
Molecule type: double-stranded DNA, one strand shown
Sample: in vitro
Concentration: 250 nM
Notes: 60-bp whole probe
Added: salmon DNA 0.4 mg/ml
Reference: random background probes
Direction: higher = stronger binding
Shared flanks, not repeated: GCCTAGCAC … GTCTTGATTCGCTTGACGCTGCTG
Residues (chain): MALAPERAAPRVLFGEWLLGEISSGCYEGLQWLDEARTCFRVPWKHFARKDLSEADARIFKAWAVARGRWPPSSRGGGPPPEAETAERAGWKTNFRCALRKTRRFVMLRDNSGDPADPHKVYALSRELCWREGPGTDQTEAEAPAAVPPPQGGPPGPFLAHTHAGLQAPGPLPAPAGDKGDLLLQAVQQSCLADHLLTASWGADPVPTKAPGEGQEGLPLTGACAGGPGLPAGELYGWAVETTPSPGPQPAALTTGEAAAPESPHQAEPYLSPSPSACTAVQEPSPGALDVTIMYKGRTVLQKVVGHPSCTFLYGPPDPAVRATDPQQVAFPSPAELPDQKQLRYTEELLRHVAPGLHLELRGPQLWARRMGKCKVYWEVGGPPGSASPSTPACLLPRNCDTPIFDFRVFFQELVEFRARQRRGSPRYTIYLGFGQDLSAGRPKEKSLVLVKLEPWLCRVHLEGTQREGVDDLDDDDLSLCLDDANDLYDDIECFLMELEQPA
`TCAGGTTCAGATATAGGACTGTGCTAG` has a log fluorescence of 0.12 z-score.
The log fluorescence of `TTAGGTCTCGGTATTGGTTAGTGCTAG` is reported as 1.87 z-score.
With `GACGCTCTCGGTTTCGGGACGTGCTAG` the log fluorescence was 4.12 z-score.
For `AAACCTATAGGGCCTGACTTCGTGCTA`, the log fluorescence was -0.135 z-score.
The log fluorescence of `TTAGATATCAGTCGCGATTAGTGCTAG` is reported as 0.743 z-score.
For `TTAGAACTGGGGATTCGATTAGTGCTA`, the log fluorescence was 0.629 z-score.
For `TTTCAGCTGTTTTTCTCACCGTGCTAG`, the log fluorescence was 0.253 z-score.
With `GACGGTTTCCTTTTCCTGATGTGCTAG` the log fluorescence was 6.48 z-score.

Study 2
Cell line: HEK-293T
Observed: pseudovirus infection
Technique: FDA-approved drug library screen
Organism: VSV pseudotyped with SARS-CoV-2 spike
Concentration: 10 µM
Time: 16 h
Reference: vehicle-treated
The GFP-positive cells of `CO[C@@]1(NC(=O)CSCC#N)C(=O)N2C(C(=O)O)=C(CSc3nnnn3C)CS[C@@H]21` is reported as 87.7%.
With `COC(=O)C1=C(C)NC(C)=C(C(=O)OCC(C)C)C1c1ccccc1[N+](=O)[O-]` (centres unmarked) the GFP-positive cells was 67.4%.
The GFP-positive cells of `C[C@H]1[C@H](NC(=O)/C(=N\OC(C)(C)C(=O)O)c2csc(N)n2)C(=O)N1S(=O)(=O)O` is reported as 66.8%.

Study 3
Target: Replicase polyprotein 1ab, polymerase (rep, Severe acute respiratory syndrome coronavirus 2, UniProt P0DTD1)
Observed: enzyme activity
Action: inhibitor
Concentration: 20 µM
The inhibition of `C[C@]12CC[C@@H]3c4ccc(O)cc4CC[C@H]3[C@@H]1CC[C@@H]2OC(=O)CCC1CCCC1` is reported as 7.69%.
For `CCn1c(=O)c(-c2ccc(Cl)cc2Cl)cc2cnc(Nc3ccc(N4CCNCC4)c(F)c3)nc21`, the inhibition was -9.48%.
The inhibition of `O=C(CCBr)N1CCN(C(=O)CCBr)CC1` is reported as -1.63%.
The inhibition of `CC(COc1ccccc1)N(CCCl)Cc1ccccc1` (centres unmarked) is reported as -0.87%.
The inhibition of `Cc1[nH]cnc1CN1CCc2c(c3ccccc3n2C)C1=O` is reported as 1%.
The inhibition of `CCCCOc1cc(C(=O)OCCN(CC)CC)ccc1N` is reported as -6.16%.
`Cn1ncnc1COc1nn2c(-c3c(F)cccc3F)nnc2cc1C1CCC1` has an inhibition of 4.21%.
`CN1CCN(c2c(F)cc3c(=O)c(C(=O)O)cn4c3c2OCN4C)CC1` has an inhibition of 5.12%.
`CCc1oc2ccccc2c1C(=O)c1ccc(OCC(=O)O)cc1` has an inhibition of 5.47%.
The inhibition of `[2H]C([2H])([2H])C(=O)Nc1c(I)c(C(=O)O)c(I)c(C(=O)NC)c1I` is reported as 2.82%.
The inhibition of `O=C(O)Cc1sc(-c2ccccc2)nc1-c1ccc(Cl)cc1` is reported as 15.6%.
`CN1CCCC(CN2c3ccccc3Sc3ccccc32)C1` (centres unmarked) gave an inhibition of 5.83%.
The inhibition of `Oc1c(Br)cc(Br)c2cccnc12` is reported as 0.1%.
`COCCOc1ccc(N2CCN(CCn3ncc4c3nc(N)n3nc(-c5ccco5)nc43)CC2)cc1` gave an inhibition of -1.65%.
`O=C(O)C1(c2ccc(-c3ccc(Cl)c(Cl)c3)c(F)c2)CC1` has an inhibition of 1.47%.
`CCN1CCN(Cc2ccc(C(=O)Nc3ccc(C)c(Oc4ccc5c(c4)CC(=O)N5)c3)cc2C(F)(F)F)CC1` gave an inhibition of -18.8%.
With `CC(C)=CCC/C(C)=C/CC/C(C)=C/CSc1ccccc1C(=O)O` the inhibition was -4.58%.
With `COc1cnc(NS(=O)(=O)c2ccc(N)cc2)nc1` the inhibition was 19.8%.
`O=c1ccc2cc(O[C@@H]3O[C@H](CO)[C@@H](O)[C@H](O)[C@H]3O)c(O)cc2o1` gave an inhibition of 2.76%.
For `COc1cc2ncnc(Nc3ccc(O)c(Br)c3)c2cc1OC`, the inhibition was 3.75%.
With `c1cc(OCCN2CCCCC2)cc(-c2n[nH]c3ccc(-c4nnc[nH]4)cc23)c1` the inhibition was 14%.
For `O=C1c2ccccc2-n2c1nc1ccccc1c2=O`, the inhibition was -0.77%.
For `C[C@]12CC[C@H](O)CC1=CC[C@@H]1[C@@H]2CC[C@]2(C)C(n3cnc4ccccc43)=CC[C@@H]12`, the inhibition was -2.97%.
`S=C=Nc1ccc(N=C=S)cc1` gave an inhibition of -1.71%.
For `C=CCN1CCc2nc(N)sc2CC1`, the inhibition was 2.22%.

Study 4
Target: RNA binding protein fox-1 homolog 2, RRM domain, GST-SBP tag (RBFOX2, Homo sapiens, UniProt O43251-10, residues 100-194)
Technique: RNA Bind-n-Seq
Molecule type: RNA
Sample: in vitro
Concentration: 365 nM
Notes: natural RNA segment, single round, ends assumed
Reference: no-protein control
Direction: higher = stronger binding
Construct (chain): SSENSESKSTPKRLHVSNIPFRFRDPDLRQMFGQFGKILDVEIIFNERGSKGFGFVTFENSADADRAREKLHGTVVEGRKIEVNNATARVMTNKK
Under “RBNS enrichment (R)”, `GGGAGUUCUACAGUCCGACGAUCGGAACCUGGAAUCACACAUACCUCGUGGUACUUUUGCCUUAGAUUUUACACUCUCAACAGCCAAGCACUGCCACGGGGCAGCCACAAUGCCAUGCGUGCUCCAGAGCCUAUGGAAUUCUCGGGUGCCAA` is recorded as 0.27.
`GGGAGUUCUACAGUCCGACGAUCUUCUGUGCCCAGGAGCAGCUGGGGGUUCCACCUCAGGGUGGGGCGGGCAGGACCCCGUCUCCCCAGGUGUCGGAGCCUGACCUGAAUUAAAGUACUGACUGCUCGCCACAUGGAAUUCUCGGGUGCCAA` — result for “RBNS enrichment (R)”: 0.344.
`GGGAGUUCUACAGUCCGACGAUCACAGCCUGCUUCUAAUACCUUCUUUCCCUACCACCUAGUUCCAAAUGGAACCAACAAGUUGAGUGCAUCUCUGUUGGGUGUUUUGUGUUGAGACUGGCUGAAGUGAAGAAUGGAAUUCUCGGGUGCCAA`: “RBNS enrichment (R)” 0.585.
`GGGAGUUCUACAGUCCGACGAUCGGGGCACAUUUCUUAGAGGGCUUGCUGAGUGUGUAAAUAUAAUCGACUUUUGUUUGUGUUACAUGACUUCUGUGACUUCAUUGAAAAUCUGCACAAUUCAGUUUCAGCUCUGGAAUUCUCGGGUGCCAA` — result for “RBNS enrichment (R)”: 0.406.
`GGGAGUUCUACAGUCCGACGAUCAACCACGUGUAAUUUUGUGGAAAUGAUAUAACAGCUAUUAAUACUACUAUAACAUAGGCAUAAAUAUUUUCGUGUUUAUAUGCAUAUACAAGUUAAAAUAAUUAGAAACUUGGAAUUCUCGGGUGCCAA`: “RBNS enrichment (R)” 0.44.

Study 5
Target: Sal-like protein 4, full length isoform B (SALL4, Homo sapiens, UniProt Q9UJQ4-2, residues 1-616)
Technique: universal PBM
Molecule type: double-stranded DNA, one strand shown
Sample: in vitro
Concentration: not given
Notes: 8-mer, flanks averaged, mean of replicates
Direction: higher = stronger binding
Construct (chain): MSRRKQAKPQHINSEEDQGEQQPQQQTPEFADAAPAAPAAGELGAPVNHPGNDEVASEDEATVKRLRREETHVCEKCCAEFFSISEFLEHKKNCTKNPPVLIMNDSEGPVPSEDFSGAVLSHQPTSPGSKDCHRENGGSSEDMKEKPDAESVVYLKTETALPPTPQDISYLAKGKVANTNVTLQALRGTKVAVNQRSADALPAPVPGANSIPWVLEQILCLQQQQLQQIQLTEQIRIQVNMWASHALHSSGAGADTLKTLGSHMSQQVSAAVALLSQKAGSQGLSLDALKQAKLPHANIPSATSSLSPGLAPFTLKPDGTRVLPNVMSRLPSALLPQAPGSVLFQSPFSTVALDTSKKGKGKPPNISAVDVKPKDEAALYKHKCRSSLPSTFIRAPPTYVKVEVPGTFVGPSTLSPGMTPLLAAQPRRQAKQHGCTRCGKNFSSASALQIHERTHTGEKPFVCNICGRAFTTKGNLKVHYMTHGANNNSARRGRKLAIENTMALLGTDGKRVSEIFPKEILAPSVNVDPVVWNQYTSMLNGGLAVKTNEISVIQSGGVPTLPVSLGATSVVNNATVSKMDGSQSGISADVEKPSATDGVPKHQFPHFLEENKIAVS
With `AACGTTCC` the E-score was 0.0454.
With `CCATCTAG` the E-score was 0.0174.
`ATTAACCC` has an E-score of 0.124.
For `ATTTCGAG`, the E-score was 0.124.
For `TCTTAGAA`, the E-score was 0.196.
The E-score of `CACAGGTA` is reported as 0.091.
For `AGTCCCTG`, the E-score was -0.24.
With `ATCGCCCC` the E-score was -0.229.

Single results of other studies
For `C[C@@H](CN1CC(=O)NC(=O)C1)N1CC(=O)NC(=O)C1`, the inhibition was 14% (Replicase polyprotein 1ab, 3C-like proteinase (rep, Middle East respiratory syndrome-related coronavirus, UniProt K9N7C7); enzyme activity, inhibitor; 10 µM).

A few entries again (study 1):
For `TTAGAACTGGGGATTCGATTAGTGCTA`, the log fluorescence was 0.629 z-score.
With `GACGGTTTCCTTTTCCTGATGTGCTAG` the log fluorescence was 6.48 z-score.
The log fluorescence of `TTAGATATCAGTCGCGATTAGTGCTAG` is reported as 0.743 z-score.
For `AAACCTATAGGGCCTGACTTCGTGCTA`, the log fluorescence was -0.135 z-score.
`TCAGGTTCAGATATAGGACTGTGCTAG` has a log fluorescence of 0.12 z-score.
For `TTTCAGCTGTTTTTCTCACCGTGCTAG`, the log fluorescence was 0.253 z-score.
The log fluorescence of `TTAGGTCTCGGTATTGGTTAGTGCTAG` is reported as 1.87 z-score.
With `GACGCTCTCGGTTTCGGGACGTGCTAG` the log fluorescence was 4.12 z-score.
